Published values collected from several papers.
Parts stem from different laboratories: compare values within a part only. Changes are numbered by the printed parent chain.

Study 1 — target: CCNE1, cyclin fold, Cln2 fusion (human); technique: yeast growth competition, sequencing; matrix: yeast; notes: weak parent motif; relative to: not given; reading: higher = stronger binding
Starting sequence: CDC6 docking peptide (human); TLKGRRLVFDNQL
Change | normalised enrichment score
TLKGRRLVFDNQD [L13D] | -0.401
TLKGRRLVFNNQL [D10N] | 1.45
TLKGRRLVFDQQL [N11Q] | -0.146
TLAGRRLVFDNQL [K3A] | 0.122

Study 2 — technique: protein binding microarray; form: double-stranded DNA, one strand shown; matrix: in vitro; concentration: not given; relative to: not given; reading: higher = stronger binding
Target: Histone acetyltransferase KAT6A, winged helix 2, GST fusion (KAT6A, Homo sapiens, UniProt Q92794, residues 85-181)
Notes: 8-mer, flanks averaged, mean of 2 arrays, mostly near background
Target sequence (chain): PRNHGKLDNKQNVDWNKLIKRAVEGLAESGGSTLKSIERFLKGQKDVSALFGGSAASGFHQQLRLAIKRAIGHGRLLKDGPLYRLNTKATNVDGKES
Sequence | E-score
GGGCGGTA | -0.0159
ACATAACG | -0.0379
CTTTTCCC | 0.0849
CGTTCTAG | -0.0691
ACATCCCA | -0.14
CCTTCGAC | -0.0369
CAGTGTCA | -0.0886

Study 3 — technique: protein-binding microarray; form: double-stranded DNA, one strand shown; matrix: in vitro; concentration: 250 nM; notes: 60-bp whole probe; added: salmon DNA 0.4 mg/ml; relative to: random background probes; reading: higher = stronger binding; all sequences stand within: GCCTAGCAC … GTCTTGATTCGCTTGACGCTGCTG
Target: Interferon regulatory factor 7, full length, phosphomimetic (IRF7, Homo sapiens, UniProt Q92985, residues 1-503, S101K/S471D/S472D/S475D/S476D/S477D/S483D/S484D/S487D)
Chain of UniProt Q92985 (whole entry, unmodified, looked up): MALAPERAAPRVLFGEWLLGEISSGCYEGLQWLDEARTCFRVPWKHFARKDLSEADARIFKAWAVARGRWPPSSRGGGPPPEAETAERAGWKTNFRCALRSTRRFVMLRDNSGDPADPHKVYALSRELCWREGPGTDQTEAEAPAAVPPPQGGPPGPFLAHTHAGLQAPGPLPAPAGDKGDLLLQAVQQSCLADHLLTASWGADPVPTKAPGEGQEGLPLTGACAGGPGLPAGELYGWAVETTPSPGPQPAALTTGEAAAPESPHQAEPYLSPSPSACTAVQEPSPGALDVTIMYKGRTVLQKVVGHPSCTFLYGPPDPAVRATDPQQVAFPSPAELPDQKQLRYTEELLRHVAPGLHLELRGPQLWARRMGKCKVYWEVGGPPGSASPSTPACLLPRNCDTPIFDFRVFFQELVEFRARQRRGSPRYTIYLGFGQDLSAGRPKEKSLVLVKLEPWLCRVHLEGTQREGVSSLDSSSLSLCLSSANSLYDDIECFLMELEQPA
Sequence | log fluorescence [z-score]
TCAAAAATGATTGGTTGACTGTGCTAG | -0.412
GACGATCTCAGACTGGACACGTGCTAG | -0.306
TTAGGTATCGCTCTCGGTTAGTGCTAG | 0.701
TCACCTCTCTCTATTCAACTGTGCTAG | 0.861
GACGATATCAGTTTCGACACGTGCTAG | 2.64
TTAGGTTTCGGGACTGAGTTAGTGCTA | 3.38
GACGTACTGGGTATCGGGACGTGCTAG | -0.169

Mixed results
Molecule | target | assay | system | conditions | scale | measurement | result
PhoQ, residues 284 288 289 292 302 303 ALASRC | PhoP, residues 12 14 15 18 19 NHFIF (Escherichia coli, UniProt P23836) | Sort-seq, refers to: YFP reporter | E. coli | PhoQ-PhoP variant library, added: 10 µM Mg2+ | relative to: high Mg2+ state, higher = stronger signaling | fold induction | 13

For quick reference, copied from above (study 1):
Change | normalised enrichment score
TLKGRRLVFNNQL [D10N] | 1.45
TLKGRRLVFDNQD [L13D] | -0.401
